Published values pooled from the literature.
Each numbered part is a random draw from the data of one study; scales do not carry over between parts. Substitutions count along the parent as printed.
Sequence of UniProt Q9Y385 (whole entry, looked up): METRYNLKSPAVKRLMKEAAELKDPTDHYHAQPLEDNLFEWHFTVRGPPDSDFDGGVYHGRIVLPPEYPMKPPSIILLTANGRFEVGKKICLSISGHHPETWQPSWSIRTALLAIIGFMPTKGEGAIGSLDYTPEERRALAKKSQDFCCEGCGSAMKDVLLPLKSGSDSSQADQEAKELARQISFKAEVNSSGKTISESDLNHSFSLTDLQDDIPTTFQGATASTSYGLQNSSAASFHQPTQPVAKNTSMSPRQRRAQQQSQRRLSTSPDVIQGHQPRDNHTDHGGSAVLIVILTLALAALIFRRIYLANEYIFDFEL
Sequence of UniProt Q969T4 (whole entry, looked up): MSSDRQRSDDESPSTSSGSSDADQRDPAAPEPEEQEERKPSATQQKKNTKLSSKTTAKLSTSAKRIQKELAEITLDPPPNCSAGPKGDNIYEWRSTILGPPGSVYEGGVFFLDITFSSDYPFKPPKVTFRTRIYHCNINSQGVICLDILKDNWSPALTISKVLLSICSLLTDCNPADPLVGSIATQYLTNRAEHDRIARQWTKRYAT
Sequence of UniProt P61081 (whole entry, looked up): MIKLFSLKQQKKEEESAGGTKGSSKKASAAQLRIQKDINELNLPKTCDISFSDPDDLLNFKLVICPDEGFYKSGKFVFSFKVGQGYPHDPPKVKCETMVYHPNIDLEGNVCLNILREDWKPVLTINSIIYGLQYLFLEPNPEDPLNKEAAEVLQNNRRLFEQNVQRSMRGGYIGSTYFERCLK
Sequence of UniProt O00762 (whole entry, looked up): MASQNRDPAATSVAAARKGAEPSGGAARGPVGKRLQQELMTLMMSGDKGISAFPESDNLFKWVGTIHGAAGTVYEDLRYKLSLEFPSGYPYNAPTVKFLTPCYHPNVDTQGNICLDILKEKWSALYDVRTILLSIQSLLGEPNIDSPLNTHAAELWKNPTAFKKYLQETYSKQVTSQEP
Sequence of UniProt Q9H832 (whole entry, looked up): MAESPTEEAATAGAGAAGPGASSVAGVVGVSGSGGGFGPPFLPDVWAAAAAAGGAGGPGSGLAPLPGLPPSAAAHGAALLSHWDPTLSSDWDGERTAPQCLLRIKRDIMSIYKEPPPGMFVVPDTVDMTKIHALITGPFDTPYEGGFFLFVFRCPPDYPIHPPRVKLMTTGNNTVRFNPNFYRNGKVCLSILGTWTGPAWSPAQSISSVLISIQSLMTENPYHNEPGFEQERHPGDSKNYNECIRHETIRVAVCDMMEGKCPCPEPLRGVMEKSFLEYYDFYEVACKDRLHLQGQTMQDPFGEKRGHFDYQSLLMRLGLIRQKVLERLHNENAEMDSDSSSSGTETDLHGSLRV
Sequence of UniProt Q7Z7E8 (whole entry, looked up): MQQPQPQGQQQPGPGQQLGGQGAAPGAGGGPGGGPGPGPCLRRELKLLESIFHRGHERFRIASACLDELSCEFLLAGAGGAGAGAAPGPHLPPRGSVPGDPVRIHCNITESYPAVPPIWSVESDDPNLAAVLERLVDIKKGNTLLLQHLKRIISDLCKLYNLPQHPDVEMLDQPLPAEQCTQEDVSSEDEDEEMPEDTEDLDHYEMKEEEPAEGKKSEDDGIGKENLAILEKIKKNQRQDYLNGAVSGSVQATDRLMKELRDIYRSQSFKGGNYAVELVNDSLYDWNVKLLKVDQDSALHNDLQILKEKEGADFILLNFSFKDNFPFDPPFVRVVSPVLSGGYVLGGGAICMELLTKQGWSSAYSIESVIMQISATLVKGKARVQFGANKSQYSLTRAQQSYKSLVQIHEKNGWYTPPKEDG
Sequence of UniProt Q9NPD8 (whole entry, looked up): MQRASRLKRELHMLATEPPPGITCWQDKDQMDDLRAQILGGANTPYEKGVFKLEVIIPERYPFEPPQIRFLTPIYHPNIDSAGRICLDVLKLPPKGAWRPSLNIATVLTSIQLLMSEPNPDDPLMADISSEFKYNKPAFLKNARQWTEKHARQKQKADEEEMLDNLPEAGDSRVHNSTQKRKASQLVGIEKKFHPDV
Sequence of UniProt Q712K3 (whole entry, looked up): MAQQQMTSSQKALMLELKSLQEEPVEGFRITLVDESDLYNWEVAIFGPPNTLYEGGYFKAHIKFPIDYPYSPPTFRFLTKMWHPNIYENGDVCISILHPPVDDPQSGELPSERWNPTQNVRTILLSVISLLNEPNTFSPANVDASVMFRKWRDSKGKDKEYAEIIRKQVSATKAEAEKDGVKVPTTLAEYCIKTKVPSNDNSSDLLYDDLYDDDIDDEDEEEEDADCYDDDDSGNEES
Sequence of UniProt P63146 (whole entry, looked up): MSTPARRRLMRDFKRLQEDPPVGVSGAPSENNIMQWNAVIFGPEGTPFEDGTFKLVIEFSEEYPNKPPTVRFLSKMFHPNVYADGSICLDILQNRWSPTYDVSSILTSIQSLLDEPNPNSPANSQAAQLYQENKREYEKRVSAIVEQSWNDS
Sequence of UniProt Q8N2K1 (whole entry, looked up): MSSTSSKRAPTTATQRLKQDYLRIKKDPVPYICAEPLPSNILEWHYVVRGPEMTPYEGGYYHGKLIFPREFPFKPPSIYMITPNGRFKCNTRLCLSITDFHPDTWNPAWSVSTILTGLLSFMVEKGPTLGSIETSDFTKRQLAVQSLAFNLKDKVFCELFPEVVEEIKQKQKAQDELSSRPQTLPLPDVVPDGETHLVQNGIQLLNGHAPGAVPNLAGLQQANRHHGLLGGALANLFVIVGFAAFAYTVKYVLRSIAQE
Sequence of UniProt Q9C0C9 (whole entry, looked up): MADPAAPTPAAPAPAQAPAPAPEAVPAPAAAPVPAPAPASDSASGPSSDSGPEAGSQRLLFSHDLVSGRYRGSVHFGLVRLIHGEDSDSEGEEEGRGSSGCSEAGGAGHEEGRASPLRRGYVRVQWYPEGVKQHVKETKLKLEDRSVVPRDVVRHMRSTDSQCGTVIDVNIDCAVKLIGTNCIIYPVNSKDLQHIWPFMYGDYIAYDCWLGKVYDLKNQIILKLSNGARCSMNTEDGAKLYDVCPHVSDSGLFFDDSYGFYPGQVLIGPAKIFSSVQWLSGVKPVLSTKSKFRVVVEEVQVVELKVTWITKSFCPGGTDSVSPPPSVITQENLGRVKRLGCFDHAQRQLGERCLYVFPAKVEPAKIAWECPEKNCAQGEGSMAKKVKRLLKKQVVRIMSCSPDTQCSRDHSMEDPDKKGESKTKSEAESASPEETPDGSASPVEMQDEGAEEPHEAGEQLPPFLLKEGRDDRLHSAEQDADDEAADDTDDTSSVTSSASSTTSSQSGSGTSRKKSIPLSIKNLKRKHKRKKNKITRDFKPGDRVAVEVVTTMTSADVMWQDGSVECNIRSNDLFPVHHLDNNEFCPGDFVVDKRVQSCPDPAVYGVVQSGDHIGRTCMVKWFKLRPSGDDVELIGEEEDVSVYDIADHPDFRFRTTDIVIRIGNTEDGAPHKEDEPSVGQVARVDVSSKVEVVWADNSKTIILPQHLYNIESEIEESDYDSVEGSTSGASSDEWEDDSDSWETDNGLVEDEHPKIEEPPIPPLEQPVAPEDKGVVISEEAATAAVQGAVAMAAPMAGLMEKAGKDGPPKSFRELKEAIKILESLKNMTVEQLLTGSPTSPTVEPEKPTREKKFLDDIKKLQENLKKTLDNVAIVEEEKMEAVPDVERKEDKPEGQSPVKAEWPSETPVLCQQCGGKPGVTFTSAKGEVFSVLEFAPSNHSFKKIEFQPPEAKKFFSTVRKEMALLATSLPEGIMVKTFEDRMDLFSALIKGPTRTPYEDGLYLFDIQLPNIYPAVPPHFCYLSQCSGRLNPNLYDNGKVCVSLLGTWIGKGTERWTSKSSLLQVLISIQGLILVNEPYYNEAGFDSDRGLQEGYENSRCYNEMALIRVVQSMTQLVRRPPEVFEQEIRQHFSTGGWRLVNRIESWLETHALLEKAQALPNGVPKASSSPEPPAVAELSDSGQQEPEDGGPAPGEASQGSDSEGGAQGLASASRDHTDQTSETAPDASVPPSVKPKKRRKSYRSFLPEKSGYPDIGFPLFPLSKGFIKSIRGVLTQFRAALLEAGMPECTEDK
Sequence of UniProt P51668 (whole entry, looked up): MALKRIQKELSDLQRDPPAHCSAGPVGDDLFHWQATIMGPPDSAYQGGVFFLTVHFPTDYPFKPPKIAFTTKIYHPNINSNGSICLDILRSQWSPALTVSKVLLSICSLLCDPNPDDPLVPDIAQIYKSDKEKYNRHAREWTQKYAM

Sample 1
Target: Centromere-binding protein 1, full length, His-tagged (CBF1, Saccharomyces cerevisiae, UniProt P17106, residues 1-351)
Sequence of UniProt P17106 (whole entry, looked up): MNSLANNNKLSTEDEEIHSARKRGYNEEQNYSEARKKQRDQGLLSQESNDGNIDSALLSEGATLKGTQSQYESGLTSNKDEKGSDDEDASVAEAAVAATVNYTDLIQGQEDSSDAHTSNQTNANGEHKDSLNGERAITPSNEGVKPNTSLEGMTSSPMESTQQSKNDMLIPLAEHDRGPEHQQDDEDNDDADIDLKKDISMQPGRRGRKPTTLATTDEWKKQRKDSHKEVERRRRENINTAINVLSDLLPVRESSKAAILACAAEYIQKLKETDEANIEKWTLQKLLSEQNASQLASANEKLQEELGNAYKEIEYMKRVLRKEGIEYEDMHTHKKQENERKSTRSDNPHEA
Technique: competition protein-binding microarray
Molecule type: double-stranded DNA, one strand shown
Sample: in vitro
Concentration: 2 µM
Notes: whole 60-bp probe, lowest competitor level
Together with: Pho4 competitor, 0.05 µM
Reading: higher = stronger binding
Constant ends, left off below: … GTCTTGATTCGCTTGACGCTGCTG
Strand	fluorescence intensity
AAAGCGGTAATTTGGAGTGTGGGTGCAGATATCTAT	67 a.u.
TAGCCTTAAATCCTGAACGTGGAGGCGATTATTTCA	68.3 a.u.
TGCAAGCTTTAAAGCACCGTGGTGATTCTCGTAATG	92.1 a.u.
CTAACGAAGGTTTGGTTCGTGGGTGACAAGCCAAGT	56.2 a.u.
TCCTGAATCAATAAGAAGGTGATGGGGTAGTTCGTC	75.9 a.u.
CTAACGAAGGTTTGTCACATTACTTACAAGCCAAGT	118 a.u.
GTCTTGTCTCATTGTACAGTGGGTGTCCCCACTTCA	75.8 a.u.
ATAAAAACACTGCGCAGCGTGCTTTTTCGGGTTCCA	87.8 a.u.
CGTCCTAGTGATTTTCACGTGTGGTCCATGAGGAAG	627 a.u.
CGGGGTTAAGTTTTTCACGTGTCGTGCGATCAGCAG	709 a.u.
GGCGCAAATAGTTGCCACGTGCGATTGCGGTGTATG	1420 a.u.
CTAACGAAGGTTTGGATTGTGGGTGACAAGCCAAGT	78.7 a.u.
GTTGAAGTTACCCGTCACGTCAAAGTTTTCACCGGA	83.3 a.u.
CTAACGAAGGTTTGGTGTGTGGGTGACAAGCCAAGT	74.4 a.u.
CTTTCCCGATCTTGCGGAGTGGGTGTAGCACATTTG	68 a.u.
CTTTCCCGATCTTGATCCGTGGGTGTAGCACATTTG	64.6 a.u.
ACCATCACAATTCGTCACGTGCAAATTAGTCCAGTC	7430 a.u.
TGGACATTTAAAGTAACAGTTAATTGAGAATACGGT	89.3 a.u.

Sample 2
Target: CCNE1, cyclin fold, Cln2 fusion (human)
Technique: yeast growth competition, sequencing
Sample: yeast
Notes: strong parent motif
Relative to: not given
Reading: higher = stronger binding
Parent: RBL2 docking peptide (human); STTRRRLFVENDS; partner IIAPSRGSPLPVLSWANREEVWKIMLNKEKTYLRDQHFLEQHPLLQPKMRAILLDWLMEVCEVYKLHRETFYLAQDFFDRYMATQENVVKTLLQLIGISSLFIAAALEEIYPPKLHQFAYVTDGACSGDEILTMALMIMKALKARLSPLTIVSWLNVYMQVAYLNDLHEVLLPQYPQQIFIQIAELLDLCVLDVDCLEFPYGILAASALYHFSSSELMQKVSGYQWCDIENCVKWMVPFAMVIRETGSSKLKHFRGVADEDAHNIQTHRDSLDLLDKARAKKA
Substitution	normalised enrichment score
T3S	2.59
R5A	-0.146
F8Y	0.257
N11H	5.16
V9W	5.56
N11F	5.36
D12T	4.78
S13M	5.43
R5M	0.496
E10D	7.25
T2Y	5.5
E10I	1.59
T3W	5.82
T2E	5.32
T3F	6.6
T2R	6.16
R4M	2.06
S13A	6.06
E10L	1.85
T3Q	0.42
S13Q	5.21
L7A	0.682
R4Q	1.2

Sample 3
Target: Sal-like protein 4, full length isoform B (SALL4, Homo sapiens, UniProt Q9UJQ4-2, residues 1-616)
Technique: universal PBM
Molecule type: double-stranded DNA, one strand shown
Sample: in vitro
Concentration: not given
Notes: 8-mer, flanks averaged, mean of replicates
Reading: higher = stronger binding
Strand	E-score
GTAATAGA	0.187
TCTTTCAA	0.0615
CGGAGCGC	-0.326
ATGAGAGC	-0.0101
GACGCCCC	-0.369
AGAGTGAC	-0.163
TCACGAAA	0.182
GCATTTCC	0.00023
AAGGACTA	0.043
CATGCTAG	0.0479
ACCACCTA	-0.0488
CCTTACTA	0.149
ACGCCACA	0.0505
AAAACTAT	0.245
ATCGGAGA	-0.0696
ACTGCAGA	-0.00845
ATATTCCA	0.335
ACAGCCGT	-0.186
AGGAATAG	0.109
GACAGGCA	-0.13
GTACTTGA	0.0589
CTCGTTCA	0.0603
GAGTGTCA	0.0162

Sample 4
Target: ABI1, truncated, D143A, DHFR fusion (Arabidopsis thaliana)
Technique: DHFR PCA, deep sequencing
Sample: yeast
Notes: methotrexate growth selection, single substitutions
Together with: (+)-ABA 710 µM
Relative to: wild-type fitted maximum
Reading: higher = stronger binding
Parent: PYL1, truncated, DHFR fusion (Arabidopsis thaliana); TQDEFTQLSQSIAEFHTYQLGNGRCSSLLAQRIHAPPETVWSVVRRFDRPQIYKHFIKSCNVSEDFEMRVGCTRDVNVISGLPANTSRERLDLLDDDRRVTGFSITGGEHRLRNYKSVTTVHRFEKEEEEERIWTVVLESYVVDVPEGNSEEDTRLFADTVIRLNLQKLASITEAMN
Substitution	relative binding score
G108I	16.6%
V161L	97.7%
N165K	68.9%
H110Q	64.7%
A175P	95.9%
V100T	102%
P37E	86%
Q51R	73.2%
R69K	96.9%
H16M	31.4%
G148E	94.6%
P50H	-3.55%
P37W	78.3%
F157C	36.1%
N165Q	45.8%
K116R	104%
P36A	99.3%

Sample 5
Molecule: B1 (RNF135 RING domain)
Technique: yeast two-hybrid
Sample: yeast
Notes: mostly zero background
Relative to: not given
Reading: higher = stronger interaction
B1: RNF135 RING domain (UniProt Q8IUD6); chain PVWLAEDDLGCIICQGLLDWPATLPCGHSFCRHCLEALWGARDARRWACPTCRQGAAQQPHLR
target	lacZ reporter activity
UBE2J2 UBC core domain (UniProt Q8N2K1)	0
UBE2D1 UBC core domain (UniProt P51668)	0
UBE2Q1 UBC core domain (UniProt Q7Z7E8)	0
UBE2T UBC core domain (UniProt Q9NPD8)	0
UBE2C UBC core domain (UniProt O00762)	0
UBE2J1 UBC core domain (UniProt Q9Y385)	0
UBE2E3 UBC core domain (UniProt Q969T4)	0
UBE2O UBC core domain (UniProt Q9C0C9)	0
UBE2Z UBC core domain (UniProt Q9H832)	0
UBE2I UBC core domain (UniProt P63279)	0
UBE2R2 UBC core domain (UniProt Q712K3)	0
UBE2M UBC core domain (UniProt P61081)	0
UBE2B UBC core domain (UniProt P63146)	0

Sample 6
Target: RING finger protein unkempt homolog, zinc fingers 1-6, GST-SBP tag (UNK, Homo sapiens, UniProt Q9C0B0, residues 30-357)
Technique: RNA Bind-n-Seq
Molecule type: RNA
Sample: in vitro
Concentration: not given
Notes: RNA with constant flanks, ends assumed
Relative to: input RNA pool
Reading: higher = stronger binding
Constant ends, left off below: GGGAGUUCUACAGUCCGACGAUC … CAACAGAGGAUUGAGCAUCA
Residues (chain): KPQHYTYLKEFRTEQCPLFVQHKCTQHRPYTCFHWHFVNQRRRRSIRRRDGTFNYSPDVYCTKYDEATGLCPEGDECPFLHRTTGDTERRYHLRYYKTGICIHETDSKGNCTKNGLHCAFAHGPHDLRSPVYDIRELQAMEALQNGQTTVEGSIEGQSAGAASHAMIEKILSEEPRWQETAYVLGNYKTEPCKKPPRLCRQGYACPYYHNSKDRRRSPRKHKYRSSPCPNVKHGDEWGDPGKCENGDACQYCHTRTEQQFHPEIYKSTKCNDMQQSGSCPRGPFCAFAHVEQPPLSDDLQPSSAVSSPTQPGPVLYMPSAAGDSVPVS
Strand	bound/input enrichment
AAGGAGCCGGUGCUGGUGGUGUCCUUCUCUGUCUGGGGCCUCGCUAUAAUUAUGCCCAUGAUCCGCCCCUACACCAAGUAUGCUAGCAUGAUCAACAAGGCCACACCCUACAACUACCCA	0.132 ratio
GAUUAUGUGCCUGCCUUAAAAGGUUUGGGUGAGUGCCACCUGUUGCUGGGGAAGGUGGCCUCCGUGGAUUUUCUGGAUGGAAAAGCUGUGGACUAUGUGGAACAAGCGCUGGGAUAUUUC	1.01 ratio
AGCGUUCAGGAAUUCAUGACCUUCACGAGUCAACUGAUUGUGGAGCGCUCAUCGAAAGGCACCCGAGCUUCUGUCAAAGAACAAGACUAUCUGUGCCACGUCUACGUCCGGAAUGAUAGU	0.0363 ratio
CAUGCAUUUUAUUGGGGAGGGGAGGUCAGAAUAAUUCACCCAAAUCUAGUGGUCUUAUUUCACCGGCUAAUCUGGUUUAUAUUUGCAUUAAAGAUACUGGAGGGCAAUAUUUACAGAGUU	0.927 ratio
CAGAGAGCUUGACCAAGUUACAUAUUCUAGAGAUCGUCCUGAGUGCCAAGCACGUUUAUAAGCCGGGCGUGUAUUCCAGUCCUUUCUGUCAUUCUGUGUGUGUGUGUGUGUGCACUUAUG	0.376 ratio
GCCACAUUUGCUAUUUCCAUCCUGCAACAGUUGGAGAUUGAGUUCAAGGAGACCCAAGCACCCGUAUUGGCCCCCACCAGAGAACUGGCUCAACAGAUCCAAAAGGUAAUUCUGGCACUU	0.2 ratio
GCUGCCCUUUCUGUUCGUAAUCUUUCACCUUAUGUUUCCAAUGAACUGUUGGAAGAAGCCUUCCGCCAAUUUGGUCCUAUUGAAAGGGCUGUUGUAAUAGUGGAUGAUCGUGGAAGAUCU	0.147 ratio
GCUAGUUCUAGUUAGUCUAUAUUGUUUGUUUUUUCAGUCUUCUUUUUCUAGCAUGCUUUACACCGGAGAGAAUAAAGGGCUAUUUAAUAAGCAAUCCGGAUCUCAGAGAACAUAGUAAUA	7.14 ratio
GUUAAGAGAAGACUAUGGAGCUGUACGAGUCAACGUAUUUUGUUGUCCUCAUCCCUUCAGCCGUUAUUACCGUCAUUUUCCUUUUCUUCUGGCUUUUCAUGAAAGAAACAUUAUAUGAUG	0.298 ratio
AAUGAAGGAACACUGGAUGAUUUUACAGUUAUAAACAGACGCAAAAAGGUAGCCAGCAAUGCCGCAUCAGCAGUGAAAAGGCCAUUUCAUUUCAUGGCAAAUUUUCCUUGUCCACCAUCA	0.209 ratio
AUUCCCAAUGCUACACAACCAGAAAGUAAGGUGUUCUACUUGAAAAUGAAAGGAGAUUAUUUCCGGUAUCUUUCUGAAGUGGCAUCUGGAGACAACAAACAAACCACUGUGUCGAACUCC	0.162 ratio

Some of these lines once more (sample 1):
Strand	fluorescence intensity
GTCTTGTCTCATTGTACAGTGGGTGTCCCCACTTCA	75.8 a.u.
GTTGAAGTTACCCGTCACGTCAAAGTTTTCACCGGA	83.3 a.u.
CTTTCCCGATCTTGCGGAGTGGGTGTAGCACATTTG	68 a.u.
GGCGCAAATAGTTGCCACGTGCGATTGCGGTGTATG	1420 a.u.
CGGGGTTAAGTTTTTCACGTGTCGTGCGATCAGCAG	709 a.u.
CTAACGAAGGTTTGTCACATTACTTACAAGCCAAGT	118 a.u.
CTAACGAAGGTTTGGTTCGTGGGTGACAAGCCAAGT	56.2 a.u.
AAAGCGGTAATTTGGAGTGTGGGTGCAGATATCTAT	67 a.u.
ACCATCACAATTCGTCACGTGCAAATTAGTCCAGTC	7430 a.u.
CTAACGAAGGTTTGGATTGTGGGTGACAAGCCAAGT	78.7 a.u.
TGCAAGCTTTAAAGCACCGTGGTGATTCTCGTAATG	92.1 a.u.
ATAAAAACACTGCGCAGCGTGCTTTTTCGGGTTCCA	87.8 a.u.
CGTCCTAGTGATTTTCACGTGTGGTCCATGAGGAAG	627 a.u.
TCCTGAATCAATAAGAAGGTGATGGGGTAGTTCGTC	75.9 a.u.
CTAACGAAGGTTTGGTGTGTGGGTGACAAGCCAAGT	74.4 a.u.
CTTTCCCGATCTTGATCCGTGGGTGTAGCACATTTG	64.6 a.u.
TGGACATTTAAAGTAACAGTTAATTGAGAATACGGT	89.3 a.u.
TAGCCTTAAATCCTGAACGTGGAGGCGATTATTTCA	68.3 a.u.
